Measured values collected from several papers.
Numbered parts are unrelated; each lists some results of a single study.

Set 1 — technique: protein binding microarray; form: double-stranded DNA, one strand shown; sample: in vitro; tested at: not given; baseline: not given; reading: higher = stronger binding
Target: Histone acetyltransferase KAT6A, winged helix 1, GST fusion (KAT6A, Homo sapiens, UniProt Q92794, residues 1-85)
Notes: 8-mer, flanks averaged, mean of 2 arrays, mostly near background
Construct (chain): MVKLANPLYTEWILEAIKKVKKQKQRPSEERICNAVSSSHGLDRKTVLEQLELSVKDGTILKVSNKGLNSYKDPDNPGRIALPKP
| Oligonucleotide | E-score |
| --- | --- |
| TAAGGAGA | -0.199 |
| AAAATCCA | -0.314 |
| CGTCGGTA | 0.401 |
| ACATCCTA | -0.117 |
| AAATTCCC | 0.0983 |
| CAAAAATG | -0.093 |
| GAGCGGGC | 0.406 |
| ATGACACG | 0.00521 |

Set 2 — effect on: enzyme activity; mode: inhibitor; tested at: 20 µM
Target: Replicase polyprotein 1ab, polymerase (rep, Severe acute respiratory syndrome coronavirus 2, UniProt P0DTD1)
| SMILES | inhibition [%] |
| --- | --- |
| Cc1ccc([C@@H]2O[C@H](CO)[C@@H](O)[C@H](O)[C@H]2O)cc1Cc1ccc(-c2ccc(F)cc2)s1 | 2.44 |
| CN(C)CCC(c1ccc(Cl)cc1)c1ccccn1 (stereo not drawn) | -12.9 |
| CCC[C@@]1(CCc2ccccc2)CC(O)=C([C@H](CC)c2cccc(NS(=O)(=O)c3ccc(C(F)(F)F)cn3)c2)C(=O)O1 | -3.19 |
| O=C(N/N=C/c1ccc([N+](=O)[O-])o1)c1ccc(O)cc1 | 2.03 |
| O=C(NCNC(=O)NC1C(=O)NC(=O)N1CO)NC1C(=O)NC(=O)N1CO (stereo not drawn) | 1.21 |
| COc1ccc(CNC(=O)c2sc3nc(C)cc(C)c3c2N)cc1 | 8.65 |
| C/C1=C/C[C@@H](/C(C)=C/c2csc(C)n2)OC(=O)C[C@H](O)C(C)(C)C(=O)[C@H](C)[C@@H](O)[C@@H](C)CCC1 | 0.94 |
| Cc1cc(Nc2ccc(NC(=O)c3ccc(Nc4ccnc5ccccc45)cc3)cc2)nc(N)n1 | 27.8 |
| CN(CCOc1ccc(C[C@H](Nc2ccccc2C(=O)c2ccccc2)C(=O)O)cc1)c1ccccn1 | -0.47 |
| CC[C@H]1OC(=O)C[C@@H](O)[C@H](C)[C@@H](O[C@@H]2O[C@H](C)C[C@H](N(C)C)[C@H]2O)[C@@H](CC=O)C[C@@H](C)C(=O)/C=C/[C@]2(C)O[C@H]2[C@@H]1C | -2.69 |
| CNC(=O)c1cc(COc2nnc(Nc3ccc(Cl)cc3)c3ccoc23)ccn1 | -13.2 |
| N[C@@H]1CCCCN(c2c(F)cc3c(=O)c(C(=O)O)cn(C4CC4)c3c2Cl)C1 | 2.57 |
| C[C@H](N)Cc1cnc[nH]1 | 5.02 |

Set 3 — technique: RNA Bind-n-Seq; form: RNA; sample: in vitro; tested at: 365 nM; baseline: no-protein control; reading: higher = stronger binding
Target: RNA binding protein fox-1 homolog 2, RRM domain, GST-SBP tag (RBFOX2, Homo sapiens, UniProt O43251-10, residues 100-194)
Notes: natural RNA segment, single round, ends assumed
Target sequence (chain): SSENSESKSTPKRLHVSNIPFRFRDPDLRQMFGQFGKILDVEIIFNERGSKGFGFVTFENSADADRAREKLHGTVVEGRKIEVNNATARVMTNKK
| Oligonucleotide | RBNS enrichment (R) |
| --- | --- |
| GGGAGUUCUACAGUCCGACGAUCGCCAUGCUUGCCUAAGACCUCGUUCUGUUCUCCCAUAAGGCCGUCCUUCCCACAGUACCUUAAGAUUGCCCAGCCUCCCUGCUCUAGUGGCUGGGGCUCCCUUACCAGAGUGGAAUUCUCGGGUGCCAA | 2.28 |
| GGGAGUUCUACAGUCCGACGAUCUCUUCCCCAAAAUUGAUCACUCCGCCUUCUCCUGGGCUCCCGUAGCACACUAUAACAUCUGCUGGAGUGUUGCUGUUGCACCAUACUUUCUUGUACAUUUGUGUCUCCCUUGGAAUUCUCGGGUGCCAA | 0.617 |
| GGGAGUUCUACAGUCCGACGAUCAACUUAAGAUGUAUUUUAAGGACUUUAUCUGUGCUUCAUCACCCAACUUGUUCACAUUGUUAAUUUCUGUCCAGAGACCUGAAACUGCUUAAGUAUGGGAACAGACUGAAUGGAAUUCUCGGGUGCCAA | 0.243 |
| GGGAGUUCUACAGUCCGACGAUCGGAACUAGAUAUGAGCUGUAUAAGAAGCAUAAUUGUGAACAAGUAGAUUGAUUGCCUUCAUAUACAAGUAUGUUUUAGUAUUCCUUAUUUCCUUAUUAUCAGAUGUAUUUUGGAAUUCUCGGGUGCCAA | 0.983 |
| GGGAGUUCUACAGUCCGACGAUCACACUUGUUAAACAUAUUGCCCCUCAAUUUUGCACACUAUAUUCUUGUAUAUUAUUUCAAAUAAAAGAAAAAAAAGGUCUGUCUUUGAUUUCUGGUUGACUGAAUUCAUGUGGAAUUCUCGGGUGCCAA | 0.81 |
| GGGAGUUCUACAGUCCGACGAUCCGGCCCGAGAUUAGGGAGGAUUGACUGUGUCAGGGAUGGCGGGUGGCCUCUCUCGCUGCCAGGGCCCUUGUCAGAGCAGCCAGGCUGGACAGACGGCCUCCCUCCUCUCCUGGAAUUCUCGGGUGCCAA | 0.272 |
| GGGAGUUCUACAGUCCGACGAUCCUGUUUUUGUUGCUCAGUAAUUCAGGUGGAAAUAUAUAACGCAAGUGGGUAGAGCGUCUGCCAGACUCCUGGCCUGGUGUGCCUGGGUAGAAUUACACGAUAAGCAAUGGUGGAAUUCUCGGGUGCCAA | 0.801 |
| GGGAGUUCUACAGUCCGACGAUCCACCGCAGAGCCGAGGCGGUGUUGUCAGGGCUAAUGUGAAAUCUCUUCCCGUGGCGCCGAUCCUCUGACUCUAUAGCGCCAGCUUGGACAGAUUGAGGUCUCUGUGGCUUUGGAAUUCUCGGGUGCCAA | 0.712 |

Other studies, line by line
| Structure (SMILES) | cell line | test | test system | conditions | scale | quantity | value |
| --- | --- | --- | --- | --- | --- | --- | --- |
| CC(=O)CCCCn1c(=O)c2c(ncn2C)n(C)c1=O | HEK-293T | pseudovirus infection, FDA-approved drug library screen | VSV pseudotyped with SARS-CoV-2 spike | 10 µM, 16 h | baseline: vehicle-treated | GFP-positive cells | 97.1% |
